Experimental data pooled from the literature.
Parts stem from different laboratories: compare values within a part only. “And” joins repeats or separate records; there may be more than shown.
Sequence of UniProt Q13177 (whole entry, looked up): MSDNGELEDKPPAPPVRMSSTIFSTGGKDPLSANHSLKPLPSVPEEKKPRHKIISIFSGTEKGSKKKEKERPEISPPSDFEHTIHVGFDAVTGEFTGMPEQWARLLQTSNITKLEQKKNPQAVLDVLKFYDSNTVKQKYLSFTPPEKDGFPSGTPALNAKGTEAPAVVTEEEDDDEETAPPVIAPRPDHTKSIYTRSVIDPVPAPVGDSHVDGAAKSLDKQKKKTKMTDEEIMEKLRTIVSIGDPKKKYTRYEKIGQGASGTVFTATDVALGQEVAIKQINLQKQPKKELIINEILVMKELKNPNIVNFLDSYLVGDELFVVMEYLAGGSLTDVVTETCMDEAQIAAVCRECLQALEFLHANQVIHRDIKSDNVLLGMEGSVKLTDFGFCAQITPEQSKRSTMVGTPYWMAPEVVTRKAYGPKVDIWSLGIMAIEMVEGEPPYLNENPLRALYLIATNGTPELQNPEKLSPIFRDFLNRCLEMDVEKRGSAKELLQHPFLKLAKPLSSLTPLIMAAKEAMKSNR
Sequence of UniProt Q9NRH2 (whole entry, looked up): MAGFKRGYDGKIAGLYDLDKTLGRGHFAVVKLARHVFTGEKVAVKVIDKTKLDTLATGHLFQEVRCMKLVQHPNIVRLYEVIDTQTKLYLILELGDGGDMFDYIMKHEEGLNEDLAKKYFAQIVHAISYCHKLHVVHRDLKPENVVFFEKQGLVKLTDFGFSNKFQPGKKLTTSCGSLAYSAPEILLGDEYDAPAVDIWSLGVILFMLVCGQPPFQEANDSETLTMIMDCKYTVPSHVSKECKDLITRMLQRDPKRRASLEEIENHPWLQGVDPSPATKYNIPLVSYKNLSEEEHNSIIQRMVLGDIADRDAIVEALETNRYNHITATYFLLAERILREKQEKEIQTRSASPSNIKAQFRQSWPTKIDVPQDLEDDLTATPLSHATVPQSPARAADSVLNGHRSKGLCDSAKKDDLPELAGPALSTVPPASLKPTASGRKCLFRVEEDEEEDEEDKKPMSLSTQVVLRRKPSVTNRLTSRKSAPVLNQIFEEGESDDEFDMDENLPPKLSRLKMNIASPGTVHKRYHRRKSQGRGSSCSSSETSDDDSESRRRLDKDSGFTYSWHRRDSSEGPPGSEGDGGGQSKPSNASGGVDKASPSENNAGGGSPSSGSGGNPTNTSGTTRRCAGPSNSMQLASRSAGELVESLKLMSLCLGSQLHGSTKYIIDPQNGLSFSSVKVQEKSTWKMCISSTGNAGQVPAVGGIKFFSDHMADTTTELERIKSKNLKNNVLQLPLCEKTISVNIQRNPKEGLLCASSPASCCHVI
Sequence of UniProt P04049 (whole entry, looked up): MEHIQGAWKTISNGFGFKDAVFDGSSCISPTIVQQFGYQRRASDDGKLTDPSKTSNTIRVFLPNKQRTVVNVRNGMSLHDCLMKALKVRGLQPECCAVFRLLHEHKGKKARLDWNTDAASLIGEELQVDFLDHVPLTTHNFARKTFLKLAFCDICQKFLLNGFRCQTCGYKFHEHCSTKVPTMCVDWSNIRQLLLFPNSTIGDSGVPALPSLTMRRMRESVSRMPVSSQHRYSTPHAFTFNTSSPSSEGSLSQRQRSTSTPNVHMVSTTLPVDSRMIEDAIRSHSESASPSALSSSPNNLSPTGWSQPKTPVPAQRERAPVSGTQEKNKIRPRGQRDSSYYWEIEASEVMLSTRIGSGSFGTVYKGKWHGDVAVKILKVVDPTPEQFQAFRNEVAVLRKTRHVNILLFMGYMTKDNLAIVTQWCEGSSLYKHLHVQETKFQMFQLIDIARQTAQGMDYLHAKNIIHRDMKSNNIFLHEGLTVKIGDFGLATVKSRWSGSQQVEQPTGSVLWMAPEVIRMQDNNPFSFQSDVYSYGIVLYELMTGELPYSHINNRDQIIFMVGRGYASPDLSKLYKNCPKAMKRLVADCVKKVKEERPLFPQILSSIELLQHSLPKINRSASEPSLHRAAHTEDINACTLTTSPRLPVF
Sequence of UniProt Q15208 (whole entry, looked up): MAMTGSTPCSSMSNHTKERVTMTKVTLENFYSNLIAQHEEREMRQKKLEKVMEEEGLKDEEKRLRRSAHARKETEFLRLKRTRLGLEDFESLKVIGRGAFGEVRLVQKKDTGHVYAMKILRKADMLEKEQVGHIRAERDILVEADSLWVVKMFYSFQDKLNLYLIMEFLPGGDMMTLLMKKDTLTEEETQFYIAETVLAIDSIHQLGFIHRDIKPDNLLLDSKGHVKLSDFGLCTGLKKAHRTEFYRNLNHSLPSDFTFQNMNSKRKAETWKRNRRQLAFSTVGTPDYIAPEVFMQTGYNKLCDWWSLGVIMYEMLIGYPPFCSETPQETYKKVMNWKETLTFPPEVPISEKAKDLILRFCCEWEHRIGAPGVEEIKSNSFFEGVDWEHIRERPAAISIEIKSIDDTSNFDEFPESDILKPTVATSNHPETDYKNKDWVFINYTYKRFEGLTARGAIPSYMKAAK
Sequence of UniProt P10721 (whole entry, unmodified, looked up): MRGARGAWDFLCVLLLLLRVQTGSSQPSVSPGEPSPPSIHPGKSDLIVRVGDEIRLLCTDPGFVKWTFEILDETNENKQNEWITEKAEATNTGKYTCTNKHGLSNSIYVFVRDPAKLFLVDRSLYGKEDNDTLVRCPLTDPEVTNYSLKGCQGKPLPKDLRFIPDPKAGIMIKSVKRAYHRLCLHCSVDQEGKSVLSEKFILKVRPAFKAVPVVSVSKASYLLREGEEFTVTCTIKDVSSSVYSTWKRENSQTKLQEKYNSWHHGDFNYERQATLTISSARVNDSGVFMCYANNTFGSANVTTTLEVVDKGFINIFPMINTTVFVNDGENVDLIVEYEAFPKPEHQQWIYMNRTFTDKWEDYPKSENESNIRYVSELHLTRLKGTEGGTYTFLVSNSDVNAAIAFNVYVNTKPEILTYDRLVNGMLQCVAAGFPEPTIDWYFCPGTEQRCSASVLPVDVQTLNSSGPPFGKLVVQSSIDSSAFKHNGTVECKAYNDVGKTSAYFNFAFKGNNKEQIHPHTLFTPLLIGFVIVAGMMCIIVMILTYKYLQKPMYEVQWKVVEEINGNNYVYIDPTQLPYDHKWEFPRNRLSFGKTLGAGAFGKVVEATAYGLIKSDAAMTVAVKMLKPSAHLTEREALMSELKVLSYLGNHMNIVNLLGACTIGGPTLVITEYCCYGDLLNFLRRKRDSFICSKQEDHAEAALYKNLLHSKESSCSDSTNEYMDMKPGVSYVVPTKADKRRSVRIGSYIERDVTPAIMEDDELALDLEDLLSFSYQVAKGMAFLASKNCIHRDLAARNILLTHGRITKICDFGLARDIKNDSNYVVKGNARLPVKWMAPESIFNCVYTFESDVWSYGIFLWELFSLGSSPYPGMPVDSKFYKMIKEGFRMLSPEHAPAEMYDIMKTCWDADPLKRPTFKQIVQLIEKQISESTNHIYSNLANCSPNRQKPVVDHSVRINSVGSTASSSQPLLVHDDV

Study 1
Cell line: mouse MPNST tumor cells
Method: high-content nuclear imaging
Item: cell number
Tested at: 10 µM
Time: 12 h
Setting: mean of 2 replicates
Reference: plate mean
Direction: higher = more cells
Compound | nuclei count
NC(N)=NCCC[C@H](NC(=O)c1sccc1NS(=O)(=O)c1cccc2nsnc12)C(=O)O | 1.48 z-score
CN1CCN(C(=O)CNC2CC2c2ccc(OCc3ccccc3)cc2)CC1 (stereo not drawn) | 0.951 z-score
COCCOCc1ccc(-c2cc3onc(-c4ccccc4)c3c(=O)n2C)cc1 | 1.88 z-score
COc1cc2c(cc1NS(=O)(=O)c1ccc(Br)cc1C)n(C)c(=O)n2C | -0.973 z-score and -0.807 z-score
OCCC#Cc1nc(-c2ccc(F)cc2)c(-c2ccncc2)n1CCCc1ccccc1 | 1.7 z-score
Cc1cc2sc(NC(=O)Cc3ccccc3)nc2cc1Cl | 3.04 z-score
NNC(=O)c1sc2cccc(Cl)c2c1Cl | -0.714 z-score

Study 2
Target: Vascular endothelial growth factor receptor 3 (FLT4, Homo sapiens, UniProt P35916)
Sequence of UniProt P35916 (whole entry, looked up): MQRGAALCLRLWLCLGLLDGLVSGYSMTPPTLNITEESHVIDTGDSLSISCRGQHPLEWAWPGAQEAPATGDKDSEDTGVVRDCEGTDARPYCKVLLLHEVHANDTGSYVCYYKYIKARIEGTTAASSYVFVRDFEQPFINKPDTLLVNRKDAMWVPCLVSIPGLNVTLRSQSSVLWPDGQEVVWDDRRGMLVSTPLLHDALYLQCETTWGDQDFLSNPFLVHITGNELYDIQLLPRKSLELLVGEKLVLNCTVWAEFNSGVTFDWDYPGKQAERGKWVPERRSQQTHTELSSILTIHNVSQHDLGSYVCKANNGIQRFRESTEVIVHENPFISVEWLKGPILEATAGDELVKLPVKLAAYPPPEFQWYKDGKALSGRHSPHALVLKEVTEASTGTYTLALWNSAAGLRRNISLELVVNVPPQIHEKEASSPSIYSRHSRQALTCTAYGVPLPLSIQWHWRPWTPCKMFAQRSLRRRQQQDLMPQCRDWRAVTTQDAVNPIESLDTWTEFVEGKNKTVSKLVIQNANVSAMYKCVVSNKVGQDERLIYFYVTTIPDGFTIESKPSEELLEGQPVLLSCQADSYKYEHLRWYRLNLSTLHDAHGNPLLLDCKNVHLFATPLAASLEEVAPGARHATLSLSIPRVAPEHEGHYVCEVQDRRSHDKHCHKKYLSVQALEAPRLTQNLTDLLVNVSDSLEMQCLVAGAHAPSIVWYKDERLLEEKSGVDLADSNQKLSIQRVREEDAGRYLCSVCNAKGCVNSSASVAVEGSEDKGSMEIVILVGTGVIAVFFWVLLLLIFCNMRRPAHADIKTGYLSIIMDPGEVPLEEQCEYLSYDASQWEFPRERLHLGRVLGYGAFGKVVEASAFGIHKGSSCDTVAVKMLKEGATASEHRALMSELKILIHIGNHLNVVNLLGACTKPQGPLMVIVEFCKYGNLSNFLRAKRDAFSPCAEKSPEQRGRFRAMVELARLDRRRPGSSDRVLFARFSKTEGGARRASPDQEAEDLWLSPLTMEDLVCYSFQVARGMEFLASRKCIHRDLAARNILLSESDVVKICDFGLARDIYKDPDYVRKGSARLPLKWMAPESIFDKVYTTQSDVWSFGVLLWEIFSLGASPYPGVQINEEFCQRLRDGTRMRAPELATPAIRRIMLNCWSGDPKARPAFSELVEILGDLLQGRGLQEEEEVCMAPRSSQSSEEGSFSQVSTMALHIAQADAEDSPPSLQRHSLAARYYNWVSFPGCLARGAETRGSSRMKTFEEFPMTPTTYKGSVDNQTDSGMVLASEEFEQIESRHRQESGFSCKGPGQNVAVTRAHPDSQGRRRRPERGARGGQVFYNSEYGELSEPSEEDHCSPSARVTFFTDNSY
Observed: enzyme activity
Action: inhibitor
Tested at: 0.5 µM
Reference: control
SMILES | remaining activity
Cn1sc(=O)n(Cc2ccccc2)c1=O | 86.8%
COc1cc2nccc(Oc3ccc(NC(=S)NC(=O)c4ccccc4C)cc3)c2cc1OC | 73.8%
O=C(O)c1ccc2c3c1cccc3c(=O)n1c3ccccc3nc21 | 82.5%
CCOC(=O)c1c(C)[nH]c(/C=C2\C(=O)Nc3ccccc32)c1C | 79.2%
C#Cc1cccc(Nc2ncnc3cc(OCCOC)c(OCCOC)cc23)c1 | 73.5%
O=c1c2ccccc2[nH]c(=S)n1CCN1CCC(=C(c2ccc(F)cc2)c2ccc(F)cc2)CC1 | 107%
O=C1NC(=O)C(c2cn(CCCO)c3ncccc23)=C1c1cnccn1 | 92.3%
COc1ccc(CNC(=O)Nc2ncc([N+](=O)[O-])s2)cc1 | 91.2%
COc1ccc(OC)c2c(=S)c3ccccc3[nH]c12 | 98.1%
CN(C)c1ccc(C=C2C(=O)Nc3ccccc32)cc1 | 98.8%
Oc1ccc(-c2nc(-c3ccncc3)c(-c3ccc(F)cc3)[nH]2)cc1 | 101%
O=C(CCCc1ccc(-c2ccccc2F)cc1)Nc1ccc(O)cc1 | 99.3%
Cc1nc(-c2ccccc2)c(-c2ccncc2)o1 | 108%
Nc1ncnc2n[nH]c(Nc3ccc(F)cc3)c12 | 92.9%

Study 3
SMILES: CN1CCN(c2cnc3c(C4CCN(C(=O)c5ccc(OC(F)(F)F)cc5N)CC4)ncnc3c2)CC1
Observed: cell-free assay
Method: competition with immobilised ligand
Tested at: 1 µM
target | remaining binding [%]
STK38 (Homo sapiens, UniProt Q15208) | 80
RAF1 (Homo sapiens, UniProt P04049) | 75
SNRK (Homo sapiens, UniProt Q9NRH2) | 87
KIT (Homo sapiens, UniProt P10721, A829P) | 100
PAK2 (Homo sapiens, UniProt Q13177) | 100

Study 4
Structure (SMILES): O=C(NC1CCNCC1)c1[nH]ncc1NC(=O)c1c(Cl)cccc1Cl
Method: trypan blue exclusion
Time: 48 h
Reference: untreated
cell line | tested at | viability
HuT78 | 0.5 µM | 41.2%
HuT78 | 0.05 µM | 105%
HH | 0.01 µM | 102%
HH | 0.5 µM | 23.7%

Repeated from above (study 2):
SMILES | remaining activity
Oc1ccc(-c2nc(-c3ccncc3)c(-c3ccc(F)cc3)[nH]2)cc1 | 101%
COc1ccc(OC)c2c(=S)c3ccccc3[nH]c12 | 98.1%
O=c1c2ccccc2[nH]c(=S)n1CCN1CCC(=C(c2ccc(F)cc2)c2ccc(F)cc2)CC1 | 107%
COc1cc2nccc(Oc3ccc(NC(=S)NC(=O)c4ccccc4C)cc3)c2cc1OC | 73.8%
